Assay results from different studies.
Each line is one published result; not all experiments were run side by side. Several values in a cell are separate wells, animals, samples, runs or records. ± gives the spread as reported.
OPRM1: Mu-type opioid receptor (OPRM1, Homo sapiens, UniProt P35372)
Sequence of UniProt P35372 (whole entry, looked up): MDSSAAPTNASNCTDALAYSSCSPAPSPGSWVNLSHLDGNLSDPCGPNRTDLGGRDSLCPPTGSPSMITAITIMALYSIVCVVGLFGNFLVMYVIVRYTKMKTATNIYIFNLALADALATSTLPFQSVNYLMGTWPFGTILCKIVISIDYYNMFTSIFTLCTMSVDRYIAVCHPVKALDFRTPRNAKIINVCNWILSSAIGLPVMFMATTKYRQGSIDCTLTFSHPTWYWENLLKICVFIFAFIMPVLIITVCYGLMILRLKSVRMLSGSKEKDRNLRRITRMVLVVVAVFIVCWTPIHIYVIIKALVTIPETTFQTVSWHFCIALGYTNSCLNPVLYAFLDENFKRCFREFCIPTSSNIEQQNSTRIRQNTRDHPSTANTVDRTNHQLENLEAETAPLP
rep papain-like protease: Replicase polyprotein 1ab, papain-like protease (rep, Severe acute respiratory syndrome coronavirus 2, UniProt P0DTD1)
rep main protease: Replicase polyprotein 1ab, main protease (rep, Severe acute respiratory syndrome coronavirus 2, UniProt P0DTD1)

`CC[C@H](C)[C@H](NC(=O)[C@H](CO)NC(=O)[C@H](Cc1ccc(O)cc1)NC(=O)[C@H](CC(=O)O)NC(=O)[C@H](CO)NC(=O)[C@@H](NC(=O)[C@H](Cc1ccccc1)NC(=O)[C@@H](NC(=O)CNC(=O)[C@H](CCC(=O)O)NC(=O)[C@@H](C)NC(=O)[C@@H](N)Cc1ccc(O)cc1)[C@@H](C)O)[C@@H](C)CC)C(=O)N[C@@H](C)C(=O)N[C@@H](CCSC)C(=O)N[C@@H](CC(=O)O)C(=O)N[C@@H](CCCCN)C(=O)N[C@H](C(=O)N[C@@H](Cc1c[nH]cn1)C(=O)N[C@@H](CCC(N)=O)C(=O)N[C@@H](CCC(N)=O)C(=O)N[C@@H](CC(=O)O)C(=O)N[C@@H](Cc1ccccc1)C(=O)N[C@H](C(=O)N[C@@H](CC(N)=O)C(=O)N[C@@H](Cc1c[nH]c2ccccc12)C(=O)N[C@@H](CC(C)C)C(=O)N[C@@H](CC(C)C)C(=O)N[C@@H](C)C(=O)N[C@@H](CCC(N)=O)C(=O)N[C@@H](CCCCN)C(=O)N1CCC[C@H]1C(=O)N[C@@H](CO)C(=O)N[C@@H](CO)C(=O)NCC(=O)N[C@@H](C)C(=O)N1CCC[C@H]1C(=O)N1CCC[C@H]1C(=O)N1CCC[C@H]1C(=O)N[C@@H](CO)C(N)=O)C(C)C)[C@@H](C)CC` gave a cholesterol of 172 ± 4 mg/dL (HF-STZ diabetic mouse; continuous infusion, 100 nmol/kg/day, 4 weeks).
`CC(C)C[C@H](NC(=O)[C@H](CO[C@@H]1O[C@H](CO)[C@@H](O)[C@H](O)[C@H]1O)NC(=O)[C@H](CCCCN)NC(=O)[C@H](CC(C)C)NC(=O)C(C)(C)NC(=O)[C@H](CCCCN)NC(=O)[C@H](CCC(=O)O)NC(=O)[C@H](C)NC(=O)[C@H](CC(C)C)NC(=O)[C@H](CC(N)=O)NC(=O)[C@@H]1CCCN1C(=O)[C@H](CC(C)C)NC(=O)[C@H](Cc1ccccc1)NC(=O)CNC(=O)[C@H](NC(=O)[C@@H](N)Cc1ccc(O)cc1)[C@H](C)O)C(N)=O` has a Ki of 2.6 ± 0.29 nM (OPRM1; radioligand displacement; CHO membranes; 60 min, pH 7.5, 25 °C, with: 0.25 nM [3H]DAMGO).
The IC50 of `CNC(=O)C[C@H](Cc1ccc(F)cc1)NC(=O)[C@@H](Cc1ccc(Cl)cc1Cl)NC(=O)[C@H](N)Cc1ccccc1C#N` is reported as > 10 µM (rep papain-like protease; enzyme activity, inhibitor).
With `O=C1CC(c2ccccc2)Oc2cc(O[C@@H]3O[C@H](CO)[C@@H](O)[C@H](O)[C@H]3O)ccc21` (some centres unmarked) the IC50 was > 30 µM (Replicase polyprotein 1ab, nsp13 helicase (rep, Severe acute respiratory syndrome coronavirus 2, UniProt P0DTD1); helicase ATPase activity, inhibitor; with: poly(A) ssRNA).
`CN(C)CCCNC(=O)C[C@H](Cc1ccc(F)cc1)NC(=O)[C@@H](Cc1ccc(Cl)cc1Cl)NC(=O)[C@H](N)Cc1ccccc1C#N` has an IC50 of 0.02 µM (rep main protease; enzyme activity, inhibitor, fluorescence).
The IC50 of `O=c1c2ccccc2sn1-c1ccccc1` is reported as 0.25 ± 0.04 µM (rep main protease; enzyme activity, inhibitor; 60 min preincubation).
`CCC1c2ccsc2CCN1C(=O)c1nnn(C2CCNCC2)c1C` (racemic) has an IC50 of > 100 µM (rep main protease; enzyme activity, inhibitor).
`CC1(C)C2CCC(CNC(=O)c3ccccc3[Se][Se]c3ccccc3C(=O)NCC3CCC4CC3C4(C)C)C1C2` (centres unmarked) gave an IC50 of 6.13 µM (rep main protease; enzyme activity, inhibitor).
With `CNc1nc(NC(CCO)c2ccccc2Cl)nc(N2CCN(C(=O)CCl)C(C(=O)NCC(N)=O)C2)n1` (centres unmarked) the IC50 was 0.34 µM (rep main protease; enzyme activity, inhibitor).
`Cc1ccc(OCCN(C)C)cc1C(=O)N[C@H](C)c1cc(-c2cnn(C)c2)cc(-c2cnn(CC(F)(F)F)c2)c1` has an IC50 of 0.112 µM (rep papain-like protease; enzyme activity, inhibitor, FRET).
For `Cc1cccc2c3c(ccc12)C1=C(C(=O)C3=O)[C@@H](C)CO1`, the IC50 was < 100 µM and 68 µM (rep papain-like protease; enzyme activity, inhibitor, fluorescence).
The IC50 of `O=C(O[C@@H]1Cc2c(O)cc(O)cc2O[C@@H]1c1ccc(O)c(O)c1)c1cc(O)c(O)c(O)c1` is reported as 5.89 ± 0.12 µM (rep main protease; inhibitor).
With `C=CC(=O)NC(CC(=C)C)C(=O)N1CC(C(=O)NC(Cc2ccco2)C(=O)NC)C(c2cccc(C(F)(F)F)c2)C1` (centres unmarked) the IC50 was 22.8 µM (rep main protease).
`CC[C@H](C)[C@H](NC(=O)CNC(=O)[C@H](C)NC(=O)[C@H](CCC(=O)O)NC(=O)[C@@H]1CCCN1C(=O)[C@H](CC(=O)O)NC(=O)[C@H](C)NC(=O)[C@@H](N)CCC(=O)O)C(=O)NCC(=O)N[C@@H](C)C(=O)N[C@H](C(=O)N[C@@H](CC(C)C)C(=O)N[C@@H](CCCCN)C(=O)N[C@H](C(=O)N[C@@H](CC(C)C)C(=O)N[C@H](C(=O)N[C@H](C(=O)NCC(=O)N[C@@H](CC(C)C)C(=O)N1CCC[C@H]1C(=O)N[C@@H](C)C(=O)N[C@@H](CC(C)C)C(=O)N[C@H](C(=O)N[C@@H](CO)C(=O)N[C@@H](Cc1c[nH]c2ccccc12)C(=O)N[C@H](C(=O)N[C@@H](CCCCN)C(=O)N[C@@H](CCCNC(=N)N)C(=O)N[C@@H](CCCCN)C(=O)N[C@@H](CCCNC(=N)N)C(=O)N[C@@H](CCC(N)=O)C(=O)N[C@@H](CCC(N)=O)C(N)=O)[C@@H](C)CC)[C@@H](C)CC)[C@@H](C)O)[C@@H](C)O)C(C)C)C(C)C` gave an HD50 of 8.6 ± 0.3 µmol/L (human erythrocytes, washed; 1 h, 37 °C, 2% v/v RBC suspension).
`CC(C)C[C@H](NC(=O)[C@H](CO[C@@H]1O[C@H](CO)[C@@H](O[C@@H]2O[C@H](CO)[C@H](O)[C@H](O)[C@H]2O)[C@H](O)[C@H]1O)NC(=O)[C@H](CCCCN)NC(=O)[C@H](CC(C)C)NC(=O)[C@H](C)NC(=O)[C@H](CCCCN)NC(=O)[C@H](CCC(=O)O)NC(=O)CNC(=O)[C@H](CC(C)C)NC(=O)[C@H](CC(N)=O)NC(=O)[C@@H]1CCCN1C(=O)[C@H](CC(C)C)NC(=O)[C@H](Cc1ccccc1)NC(=O)CNC(=O)[C@H](NC(=O)[C@@H](N)Cc1ccc(O)cc1)[C@H](C)O)C(N)=O` gave a Ki of 9.8 ± 0.97 nM (OPRM1; radioligand displacement; CHO membranes; 60 min, pH 7.5, 25 °C, with: 0.25 nM [3H]DAMGO).
`COc1ccc(C(C)NC(=O)c2cc(N)ccc2C)cc1OC` (centres unmarked) gave an IC50 of 24.7 ± 3.7 µM (rep papain-like protease; inhibitor).
`CCCCCCCCCCCCCCCC(=O)N[C@@H](CCC(=O)NCCOCCOCCC(=O)NCCOCCOCCC(=O)NCCCC[C@H](NC(=O)[C@H](CC(=O)O)NC(=O)[C@H](CC(C)C)NC(=O)[C@H](Cc1ccc(O)cc1)NC(=O)[C@H](CCCCN)NC(=O)[C@H](CO)NC(=O)[C@H](Cc1ccc(O)cc1)NC(=O)[C@H](CC(=O)O)NC(=O)[C@H](CO)NC(=O)[C@@H](NC(=O)[C@H](Cc1ccccc1)NC(=O)[C@@H](NC(=O)CNC(=O)[C@H](CCC(N)=O)NC(=O)[C@@H](CO)NC(=O)[C@@H](N)Cc1c[nH]cn1)[C@@H](C)O)[C@@H](C)O)C(=O)N[C@@H](CCCNC(=N)N)C(=O)N[C@@H](CCCNC(=N)N)C(=O)N[C@@H](C)C(=O)N[C@@H](CCC(N)=O)C(=O)N[C@@H](CC(=O)O)C(=O)N[C@@H](Cc1ccccc1)C(=O)N[C@H](C(=O)N[C@@H](CCC(N)=O)C(=O)N[C@@H](Cc1c[nH]c2ccccc12)C(=O)N[C@@H](CC(C)C)C(=O)N[C@@H](CC(C)C)C(=O)N[C@@H](CC(N)=O)C(=O)N[C@H](C(=O)NCC(=O)NCC(=O)N1CCC[C@H]1C(=O)N[C@@H](CO)C(=O)N[C@@H](CO)C(=O)NCC(=O)N[C@@H](C)C(=O)N1CCC[C@H]1C(=O)N1CCC[C@H]1C(=O)N1CCC[C@H]1C(=O)N[C@@H](CO)C(N)=O)[C@@H](C)O)C(C)C)C(=O)O` has an MRT of 5.7 h (rhesus monkey, plasma; subcutaneous, 60 µg/kg, single dose).
